Results pooled from the literature.
Compare with care: the assays were run in different laboratories. ± gives the spread as reported.
UniProt Q16566, sequence (whole entry, looked up): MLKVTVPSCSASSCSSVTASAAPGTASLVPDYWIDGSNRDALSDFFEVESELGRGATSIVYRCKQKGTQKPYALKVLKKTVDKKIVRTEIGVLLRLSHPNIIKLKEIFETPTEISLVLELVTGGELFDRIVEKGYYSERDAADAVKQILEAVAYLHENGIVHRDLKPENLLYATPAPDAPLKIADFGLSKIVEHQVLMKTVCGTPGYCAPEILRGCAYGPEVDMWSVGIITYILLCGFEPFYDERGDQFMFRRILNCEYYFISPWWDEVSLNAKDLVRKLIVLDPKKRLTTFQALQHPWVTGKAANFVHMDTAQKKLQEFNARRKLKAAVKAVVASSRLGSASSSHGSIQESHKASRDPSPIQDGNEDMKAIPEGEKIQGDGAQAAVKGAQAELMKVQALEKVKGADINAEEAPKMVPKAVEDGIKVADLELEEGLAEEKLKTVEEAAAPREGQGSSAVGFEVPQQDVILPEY
UniProt Q06187, sequence (whole entry, looked up): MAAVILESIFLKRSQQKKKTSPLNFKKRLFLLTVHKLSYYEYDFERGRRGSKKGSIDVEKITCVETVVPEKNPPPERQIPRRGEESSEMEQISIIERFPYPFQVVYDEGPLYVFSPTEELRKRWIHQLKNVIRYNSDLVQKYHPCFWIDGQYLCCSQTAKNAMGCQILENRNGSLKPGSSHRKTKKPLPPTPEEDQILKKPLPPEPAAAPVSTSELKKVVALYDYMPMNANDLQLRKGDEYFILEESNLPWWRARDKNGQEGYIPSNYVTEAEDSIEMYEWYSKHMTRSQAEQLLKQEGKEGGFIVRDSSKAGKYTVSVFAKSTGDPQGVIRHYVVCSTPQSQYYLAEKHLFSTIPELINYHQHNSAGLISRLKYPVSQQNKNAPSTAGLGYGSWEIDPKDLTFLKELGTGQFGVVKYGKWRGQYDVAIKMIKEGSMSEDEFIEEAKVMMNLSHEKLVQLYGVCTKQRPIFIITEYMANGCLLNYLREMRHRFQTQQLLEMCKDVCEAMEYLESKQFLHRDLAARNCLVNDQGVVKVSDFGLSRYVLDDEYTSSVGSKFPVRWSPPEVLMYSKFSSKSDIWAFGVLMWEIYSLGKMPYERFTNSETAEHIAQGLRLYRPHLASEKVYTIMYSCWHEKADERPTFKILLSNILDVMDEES
UniProt P41146, sequence (whole entry, looked up): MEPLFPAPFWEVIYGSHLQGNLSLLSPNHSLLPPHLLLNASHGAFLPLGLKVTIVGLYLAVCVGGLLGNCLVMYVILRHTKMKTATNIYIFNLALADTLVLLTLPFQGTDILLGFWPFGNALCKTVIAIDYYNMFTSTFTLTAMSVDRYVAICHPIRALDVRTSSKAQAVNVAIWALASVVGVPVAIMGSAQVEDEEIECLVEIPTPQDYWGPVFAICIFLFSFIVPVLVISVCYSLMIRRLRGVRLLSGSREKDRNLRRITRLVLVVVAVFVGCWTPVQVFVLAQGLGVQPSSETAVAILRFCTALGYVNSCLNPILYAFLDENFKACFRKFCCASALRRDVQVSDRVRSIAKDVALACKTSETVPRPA
UniProt P31323, sequence (whole entry, looked up): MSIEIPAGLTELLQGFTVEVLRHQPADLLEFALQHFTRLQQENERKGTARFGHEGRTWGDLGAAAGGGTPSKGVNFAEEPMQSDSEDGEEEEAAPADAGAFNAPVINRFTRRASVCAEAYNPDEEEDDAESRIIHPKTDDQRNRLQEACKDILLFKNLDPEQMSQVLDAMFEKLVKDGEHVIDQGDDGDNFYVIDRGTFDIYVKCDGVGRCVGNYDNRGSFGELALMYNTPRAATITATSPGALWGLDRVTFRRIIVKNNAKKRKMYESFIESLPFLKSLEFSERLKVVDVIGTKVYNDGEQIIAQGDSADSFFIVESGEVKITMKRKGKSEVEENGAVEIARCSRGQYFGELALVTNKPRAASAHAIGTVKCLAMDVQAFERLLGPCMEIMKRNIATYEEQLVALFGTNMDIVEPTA
UniProt Q9H2X6, sequence (whole entry, looked up): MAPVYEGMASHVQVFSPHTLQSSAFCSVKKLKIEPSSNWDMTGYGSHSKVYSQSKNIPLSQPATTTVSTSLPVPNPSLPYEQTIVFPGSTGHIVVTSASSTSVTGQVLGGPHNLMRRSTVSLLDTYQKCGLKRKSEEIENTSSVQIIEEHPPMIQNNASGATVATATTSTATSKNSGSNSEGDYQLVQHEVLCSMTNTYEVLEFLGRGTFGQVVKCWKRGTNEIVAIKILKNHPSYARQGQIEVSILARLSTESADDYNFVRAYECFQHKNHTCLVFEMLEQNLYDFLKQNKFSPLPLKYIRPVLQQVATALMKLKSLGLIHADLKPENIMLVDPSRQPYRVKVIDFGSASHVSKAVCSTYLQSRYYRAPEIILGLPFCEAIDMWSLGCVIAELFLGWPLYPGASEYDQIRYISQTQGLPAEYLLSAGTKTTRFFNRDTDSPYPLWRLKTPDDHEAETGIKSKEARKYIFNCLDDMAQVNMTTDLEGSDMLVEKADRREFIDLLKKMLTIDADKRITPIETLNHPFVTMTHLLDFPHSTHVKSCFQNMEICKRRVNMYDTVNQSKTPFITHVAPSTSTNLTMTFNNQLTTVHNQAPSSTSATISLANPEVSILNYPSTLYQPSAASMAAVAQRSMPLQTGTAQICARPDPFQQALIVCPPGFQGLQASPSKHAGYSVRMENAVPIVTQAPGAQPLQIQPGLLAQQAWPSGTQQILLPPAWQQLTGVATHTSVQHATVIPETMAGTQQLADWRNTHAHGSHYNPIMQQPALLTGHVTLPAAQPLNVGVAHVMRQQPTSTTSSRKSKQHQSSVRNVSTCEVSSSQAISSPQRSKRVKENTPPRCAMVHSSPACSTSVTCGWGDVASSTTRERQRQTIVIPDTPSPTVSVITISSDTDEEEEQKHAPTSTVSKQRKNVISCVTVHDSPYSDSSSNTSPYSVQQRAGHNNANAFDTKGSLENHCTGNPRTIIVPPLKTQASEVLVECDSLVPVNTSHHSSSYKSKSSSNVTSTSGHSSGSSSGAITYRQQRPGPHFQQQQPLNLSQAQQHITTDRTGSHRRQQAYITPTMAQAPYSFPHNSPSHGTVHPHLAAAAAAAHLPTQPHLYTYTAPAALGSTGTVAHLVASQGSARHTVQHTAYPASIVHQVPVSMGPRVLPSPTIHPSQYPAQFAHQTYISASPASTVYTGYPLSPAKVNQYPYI
UniProt Q99720, sequence (whole entry, looked up): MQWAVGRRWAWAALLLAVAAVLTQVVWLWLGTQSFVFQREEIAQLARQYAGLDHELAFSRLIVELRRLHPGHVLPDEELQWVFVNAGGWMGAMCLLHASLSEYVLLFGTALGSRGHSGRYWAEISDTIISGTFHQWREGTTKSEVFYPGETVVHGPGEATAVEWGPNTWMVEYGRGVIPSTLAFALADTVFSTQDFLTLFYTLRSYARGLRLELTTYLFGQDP
UniProt O14804, sequence (whole entry, looked up): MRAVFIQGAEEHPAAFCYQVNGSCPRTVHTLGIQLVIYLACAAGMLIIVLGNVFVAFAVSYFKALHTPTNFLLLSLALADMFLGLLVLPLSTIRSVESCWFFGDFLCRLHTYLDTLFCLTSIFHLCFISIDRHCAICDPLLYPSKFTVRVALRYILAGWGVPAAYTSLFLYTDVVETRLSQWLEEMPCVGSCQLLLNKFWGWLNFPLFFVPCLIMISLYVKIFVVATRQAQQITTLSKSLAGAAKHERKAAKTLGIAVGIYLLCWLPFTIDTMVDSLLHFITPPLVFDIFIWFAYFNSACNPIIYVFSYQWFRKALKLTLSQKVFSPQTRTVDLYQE

SMILES	target or system	assay	test system	conditions	scale	quantity	result
[2H]c1c([2H])c([C@]2([2H])CCCN2C(=O)C(C)(C)Oc2ccc3cn[nH]c3c2)c([2H])c([2H])c1C([2H])([2H])[2H]	BTK (Homo sapiens, UniProt Q06187)	KINOMEscan	–	1 µM	relative to: DMSO control	remaining binding	100%
CN1CCN(c2cc(-c3ccncc3)c(-c3ccc4ccccc4c3)nn2)CC1	Nociceptin receptor (OPRL1, Homo sapiens, UniProt P41146)	agonist, FLIPR	–	12.5 µM	–	activation	-3.1%
Oc1ccc2c3c1O[C@H]1[C@@H](O)CC[C@@]4(O)[C@@H](C2)N(CC2CCC2)CC[C@]314	TAAR5 (Homo sapiens, UniProt O14804)	β-arrestin recruitment, TANGO luminescence	–	concentration not given	relative to: basal luminescence	log2 fold change	0.495
O=C(Nc1cnccc1Cl)N1CCN(Cc2ccc3c(c2)OC(F)(F)O3)CC1	HIPK2 (Homo sapiens, UniProt Q9H2X6)	kinase activity, inhibitor	–	10 µM, together with: myelin basic protein substrate	–	inhibition	-1%
CCCCN1CCC(COC(=O)c2ccc(N)c(O[11CH3])c2)CC1	–	5-HT4 receptor binding, PET	rhesus monkey (Macaca mulatta), brain thalamus	dose not given, baseline scan, unit not given	relative to: cerebellum reference region	binding potential BPND	0.31 ± 0.07
C[C@H]1CN(c2n[nH]c3nc(N[C@H]4CC[C@H](NS(=O)(=O)CCC(F)(F)F)CC4)ncc23)CCO1	PRKAR2B (Homo sapiens, UniProt P31323)	inhibitor, Kinobeads competition profiling	–	0.8 µM	relative to: vehicle	relative abundance	1.13
CC[C@H](C)[C@H](NC(=O)CNC(=O)[C@@H](N)CCCCN)C(=O)N[C@@H](CC(C)C)C(=O)N[C@@H](CCCCN)C(=O)N[C@@H](CCCNC(=N)N)C(=O)N[C@@H](CCC(=O)O)C(=O)N[C@@H](CCCCN)C(=O)N[C@@H](CCCNC(=N)N)C(=O)N[C@@H](CC(C)C)C(=O)N[C@@H](CCCNC(=N)N)C(=O)N[C@@H](CCCNC(=N)N)C(=O)N[C@@H](CCCCN)C(=O)N[C@@H](CC(N)=O)C(=O)N[C@H](C(=O)N[C@@H](Cc1c[nH]cn1)C(=O)N[C@@H](Cc1c[nH]c2ccccc12)C(=O)N1CCC[C@H]1C(=O)N[C@@H](CCC(=O)O)C(=O)N[C@@H](CCC(=O)O)C(=O)NCC(=O)N[C@@H](CCCCN)C(=O)N[C@@H](CC(C)C)C(=O)N[C@@H](CCCNC(=N)N)C(=O)N[C@@H](CCC(=O)O)C(=O)N[C@@H](Cc1ccc(O)cc1)C(=O)N[C@@H](Cc1ccccc1)C(=O)N[C@@H](Cc1ccc(O)cc1)C(=O)N[C@@H](Cc1ccccc1)C(=O)N[C@@H](CCC(=O)O)C(=O)N[C@@H](CC(C)C)C(=O)N[C@@H](CC(=O)O)C(=O)N[C@@H](CCC(=O)O)C(=O)N[C@@H](C)C(=O)N[C@@H](CCC(=O)O)C(=O)N[C@@H](CCCNC(=N)N)C(=O)N[C@H](C(=O)N[C@@H](CC(N)=O)C(=O)N[C@H](C(=O)O)C(C)C)C(C)C)C(C)C	HeLa and HEK-293T cells	phosphatase bead binding, competitive inhibitor, PIB pulldown iBAQ LC-MS/MS, refers to: PPP4R4	–	concentration not given	relative to: untreated control	log2 fold change	-0.08
COc1ccc(N2C(=O)N(c3c(C)cccc3Cl)Cc3cnc(Nc4ccc(C5CCN(C)CC5)cc4OC)nc32)nc1	CAMK4 (Homo sapiens, UniProt Q16566)	kinase activity	–	0.5 µM	–	inhibition	2.2%
O=C(Nc1cccnn1)N1CCC(=Cc2cccc(Oc3ccc(C(F)(F)F)cn3)c2)CC1	SIGMAR1 (Homo sapiens, UniProt Q99720)	radioligand binding, inhibitor	–	50 µM, human, together with: [3H]haloperidol	–	inhibition	46%
CC[C@H](C)[C@H](NC(=O)CNC(=O)[C@@H](N)CCCCN)C(=O)N[C@@H](CC(C)C)C(=O)N[C@@H](CCCCN)C(=O)N[C@@H](CCCNC(=N)N)C(=O)N[C@@H](CCC(=O)O)C(=O)N[C@@H](CCCCN)C(=O)N[C@@H](CCCNC(=N)N)C(=O)N[C@@H](CC(C)C)C(=O)N[C@@H](CCCNC(=N)N)C(=O)N[C@@H](CCCNC(=N)N)C(=O)N[C@@H](CCCCN)C(=O)N[C@@H](CC(N)=O)C(=O)N[C@H](C(=O)N[C@@H](Cc1c[nH]cn1)C(=O)N[C@@H](Cc1c[nH]c2ccccc12)C(=O)N1CCC[C@H]1C(=O)N[C@@H](CCC(=O)O)C(=O)N[C@@H](CCC(=O)O)C(=O)NCC(=O)N[C@@H](CCCCN)C(=O)N[C@@H](CC(C)C)C(=O)N[C@@H](CCCNC(=N)N)C(=O)N[C@@H](CCC(=O)O)C(=O)N[C@@H](Cc1ccccc1)C(=O)N[C@@H](Cc1ccccc1)C(=O)N[C@@H](Cc1ccccc1)C(=O)N[C@@H](Cc1ccccc1)C(=O)N[C@@H](CCC(=O)O)C(=O)N[C@@H](CC(C)C)C(=O)N[C@@H](CC(=O)O)C(=O)N[C@@H](CCC(=O)O)C(=O)N[C@@H](C)C(=O)N[C@@H](CCC(=O)O)C(=O)N[C@@H](CCCNC(=N)N)C(=O)N[C@H](C(=O)N[C@@H](CC(N)=O)C(=O)N[C@H](C(=O)O)C(C)C)C(C)C)C(C)C	HeLa and HEK-293T cells	phosphatase bead binding, competitive inhibitor, PIB pulldown iBAQ LC-MS/MS, refers to: SIKE1	–	concentration not given	relative to: untreated control	log2 fold change	0.61
